# Experimental data pooled from the literature.
# Protocols differ between the studies behind these lines. “And” joins repeats or separate records; there may be more than shown.
# Observed: DPPH scavenging
SMILES,assay,setting,IC50
O=c1c(O)c(-c2cc(O)ccc2O)oc2cc(O)cc(O)c12,absorbance,,64 µg/mL
COc1cc(/C=C/C(=O)NC(C)C(N)=O)ccc1OCc1ccccc1 (centres unmarked),,,81.3 µM
CCCCn1cc(C(=O)O)c(=O)c2cc(F)c(Nc3cccc(Cl)c3)c(N)c21,,30 min,110 µM
S=C(NCc1ccccn1)NCc1ccccn1,,,120 µg/mL
CCCCn1cc(C(=O)O)c(=O)c2cc(F)c(Nc3ccccc3Cl)c(N)c21,,30 min,89.8 µM and 90 µM
O=C(O)/C=C/c1cc(O)cc(O)c1,absorbance,,65 µg/mL
c1coc(-c2nc3ccccc3[nH]2)c1,absorbance,,1.4 µM
c1ccc(-c2cc(-c3ccc4ccccc4n3)c3c4nncn4c4nncn4c3n2)cc1,absorbance,30 min,121 µM
COc1cc(/C=C/C(=O)CC(=O)/C=C/c2ccc(OC(=O)CCc3c[nH]c4ccccc34)c(OC)c2)ccc1OC(=O)CCc1c[nH]c2ccccc12,,,626 µM
O=C(O)/C=C/c1ccc(O)cc1,,,59 µg/mL
CC(=O)c1nn(-c2ccc([N+](=O)[O-])cc2)c2nc3nc(-c4ccccc4)cc(-c4ccc5ccccc5n4)c3c(=O)n12,absorbance,30 min,135 µM

# Some of these lines once more:
SMILES,assay,setting,IC50
COc1cc(/C=C/C(=O)NC(C)C(N)=O)ccc1OCc1ccccc1 (centres unmarked),,,81.3 µM
